{"data": "Measurements gathered from unrelated publications", "sequence of UniProt P08069 (whole entry, looked up)": "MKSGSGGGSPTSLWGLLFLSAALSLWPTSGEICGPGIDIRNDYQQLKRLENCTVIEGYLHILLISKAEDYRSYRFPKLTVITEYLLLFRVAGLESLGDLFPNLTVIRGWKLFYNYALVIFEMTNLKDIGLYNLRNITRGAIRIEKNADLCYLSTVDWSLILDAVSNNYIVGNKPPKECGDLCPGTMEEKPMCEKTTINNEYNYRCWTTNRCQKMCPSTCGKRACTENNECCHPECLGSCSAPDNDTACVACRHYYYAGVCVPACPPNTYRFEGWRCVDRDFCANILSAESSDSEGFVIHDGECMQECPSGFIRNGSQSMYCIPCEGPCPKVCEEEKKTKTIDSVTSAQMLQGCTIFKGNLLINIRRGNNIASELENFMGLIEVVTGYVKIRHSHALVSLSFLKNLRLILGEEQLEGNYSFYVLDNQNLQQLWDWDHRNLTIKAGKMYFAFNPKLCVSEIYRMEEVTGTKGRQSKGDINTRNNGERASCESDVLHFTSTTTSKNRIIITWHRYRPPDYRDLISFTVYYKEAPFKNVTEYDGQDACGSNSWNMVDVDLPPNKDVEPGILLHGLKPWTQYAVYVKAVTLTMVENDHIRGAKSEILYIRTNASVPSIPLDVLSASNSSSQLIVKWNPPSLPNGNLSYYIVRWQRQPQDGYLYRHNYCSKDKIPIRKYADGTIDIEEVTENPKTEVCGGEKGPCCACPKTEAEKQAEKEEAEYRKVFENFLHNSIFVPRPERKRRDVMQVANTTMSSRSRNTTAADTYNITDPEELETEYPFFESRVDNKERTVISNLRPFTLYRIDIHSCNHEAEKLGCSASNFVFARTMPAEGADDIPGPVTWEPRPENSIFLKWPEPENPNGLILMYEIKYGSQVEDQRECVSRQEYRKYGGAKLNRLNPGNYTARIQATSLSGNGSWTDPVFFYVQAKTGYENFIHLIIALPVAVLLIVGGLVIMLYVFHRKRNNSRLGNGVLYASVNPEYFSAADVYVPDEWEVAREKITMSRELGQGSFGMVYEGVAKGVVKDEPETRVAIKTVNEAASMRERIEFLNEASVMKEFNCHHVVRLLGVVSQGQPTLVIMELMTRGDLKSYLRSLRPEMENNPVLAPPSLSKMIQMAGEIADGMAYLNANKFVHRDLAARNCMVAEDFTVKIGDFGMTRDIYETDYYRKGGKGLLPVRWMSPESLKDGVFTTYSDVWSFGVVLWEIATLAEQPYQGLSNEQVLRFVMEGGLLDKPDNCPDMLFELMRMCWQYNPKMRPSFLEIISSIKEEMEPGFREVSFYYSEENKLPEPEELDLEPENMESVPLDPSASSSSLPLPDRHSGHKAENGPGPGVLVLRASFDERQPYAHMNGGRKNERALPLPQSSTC", "sequence of UniProt P14868 (whole entry, looked up)": "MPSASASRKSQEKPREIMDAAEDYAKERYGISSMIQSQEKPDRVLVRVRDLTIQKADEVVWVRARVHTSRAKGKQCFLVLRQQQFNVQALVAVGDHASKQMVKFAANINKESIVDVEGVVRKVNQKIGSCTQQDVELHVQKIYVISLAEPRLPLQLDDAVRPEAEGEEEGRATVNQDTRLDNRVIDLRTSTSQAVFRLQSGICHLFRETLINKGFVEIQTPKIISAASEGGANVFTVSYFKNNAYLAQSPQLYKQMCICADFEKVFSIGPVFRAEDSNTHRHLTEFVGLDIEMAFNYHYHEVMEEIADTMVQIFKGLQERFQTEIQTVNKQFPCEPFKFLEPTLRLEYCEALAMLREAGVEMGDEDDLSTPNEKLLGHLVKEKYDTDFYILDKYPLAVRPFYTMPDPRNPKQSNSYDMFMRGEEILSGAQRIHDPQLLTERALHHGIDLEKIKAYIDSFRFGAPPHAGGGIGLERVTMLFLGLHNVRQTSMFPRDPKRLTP", "sequence of UniProt P25105 (whole entry, looked up)": "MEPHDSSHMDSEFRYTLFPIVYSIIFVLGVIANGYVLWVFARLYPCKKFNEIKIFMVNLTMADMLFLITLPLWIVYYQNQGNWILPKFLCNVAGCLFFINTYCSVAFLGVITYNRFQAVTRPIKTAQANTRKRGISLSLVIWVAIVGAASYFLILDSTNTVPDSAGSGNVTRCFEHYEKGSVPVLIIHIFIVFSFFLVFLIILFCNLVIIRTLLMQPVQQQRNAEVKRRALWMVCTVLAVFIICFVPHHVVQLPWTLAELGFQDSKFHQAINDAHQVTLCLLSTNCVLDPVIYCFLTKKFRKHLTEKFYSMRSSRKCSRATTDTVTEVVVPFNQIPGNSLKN"}
{"SMILES": "COc1ccc2nc3cc(Cl)ccc3c(Nc3cc(CN4CCCC4)c(O)c(CN4CCCC4)c3)c2n1", "test system": "mouse, blood", "conditions": "intraperitoneal, 28 mg/kg", "measurement": "AST activity", "result": "49.2 U/L"}
{"SMILES": "COc1cc2c(Oc3ccc4[nH]c(C)cc4c3F)ccnc2cc1OCC1(N)CC1", "test system": "paediatric recurrent refractory sarcoma", "conditions": "12 mg", "measurement": "Hyperthyroidism incidence", "result": "9.1%"}
{"SMILES": "CC(=O)N1CCC(C(=O)N2CCN3C(=O)c4cc(-c5ccccc5)ccc4NC(=O)C3C2)CC1 (stereo not drawn)", "tested on": "Salmonella typhimurium", "test system": "TA1537", "conditions": "5000 µg/plate", "measurement": "revertants per plate", "result": 19.5}
{"SMILES": "COc1cc(CCC[P+](c2ccccc2)(c2ccccc2)c2ccccc2)c(OC)c2c1OCO2.[I-]", "tested on": "SK-MEL-28", "test": "SRB", "measurement": "LC50", "result": "-4.38 log M"}
{"SMILES": "COc1ccc(N2C(=O)N(c3c(C)cccc3Cl)Cc3cnc(Nc4ccc(C5CCN(C)CC5)cc4OC)nc32)nc1", "tested on": "IGF1R (Homo sapiens, UniProt P08069)", "test": "kinase activity", "conditions": "0.5 µM", "measurement": "inhibition", "result": "18%"}
{"SMILES": "C[C@@H](O)[C@@H](CO)NC(=O)[C@@H](CCCNC(=N)N)NC(=O)[C@@H]1CCCN1C(=O)[C@@H]1CSSC[C@H](NC(=O)[C@H](Cc2ccccc2)NC(=O)CN2CCN(CC(=O)O)CCN(CC(=O)O)CCN(CC(=O)O)CC2)C(=O)N[C@@H](Cc2ccc(O)cc2)C(=O)N[C@@H](Cc2ccccc2)C(=O)N[C@@H](CCC(N)=O)C(=O)N[C@@H](CC(N)=O)C(=O)N1 [gallium-68 labelled]", "test system": "healthy Wistar rat, adrenals", "conditions": "intravenous, 8 MBq, 60 min, individual animals", "measurement": "tissue uptake", "result": "0.11 %ID/g"}
{"SMILES": "C[C@H]1C[C@@H](N2C(=N)N[C@](C)(c3cccc(NC(=O)c4cccc(C#N)c4)c3Cl)CC2=O)CCO1", "test system": "rat", "conditions": "1000 mg/kg, every other day", "measurement": "monocytes count change", "result": "46%"}
{"SMILES": "CO[C@H]1C[C@@H]2CC[C@@H](C)[C@@](O)(O2)C(=O)C(=O)N2CCCC[C@H]2C(=O)O[C@H]([C@H](C)C[C@@H]2CC[C@@H](OC(=O)NCCOCCOCCOCCOCCOCCOCCOCCOCCC(=O)N3CCc4cc(Cn5nc(-c6ccc7oc(N)nc7c6)c6c(N)ncnc65)ccc4C3)[C@H](OC)C2)C[C@@H](O)[C@H](C)/C=C(\\C)[C@@H](O)[C@@H](OC)C(=O)[C@H](C)C[C@H](C)/C=C/C=C/C=C/1C", "test system": "patients with advanced solid tumours", "conditions": "intravenous, 16 mg weekly, grade 3 or higher", "measurement": "AE leading to dose reduction", "result": "50%"}
{"SMILES": "CN1CC[C@@H](c2c(O)cc(O)c3c(=O)cc(-c4ccc(C(F)(F)F)cc4Cl)oc23)[C@@H]1CO", "test": "measured: Hypotension", "test system": "AML", "conditions": "oral, 200 mg, intermittent dosing", "measurement": "patients with adverse event", "result": "10%"}
{"SMILES": "CC(C)CC(=O)OC[C@H]1O[C@@](C#N)(c2ccc3c(N)ncnn23)[C@H](O)[C@@H]1O", "test": "plasma protein binding", "test system": "dog plasma", "conditions": "9 µM", "measurement": "bound fraction", "result": 0.722}
{"SMILES": "CC(C)C[C@H](NC(=O)[C@H](CCCCN)NC(=O)OCC1c2ccccc2-c2ccccc21)C(=O)N[C@H](C(=O)N[C@@H](Cc1ccccc1)C(=O)N[C@@H](Cc1ccccc1)C(=O)N[C@@H](CCCCN)C(=O)NCC(=O)N[C@@H](Cc1ccccc1)C(=O)N[C@@H](C)C(=O)N[C@@H](Cc1c[nH]c2ccccc12)C(=O)N[C@@H](CC(N)=O)C(=O)N[C@H](C(=O)N[C@H]1CSSC[C@@H](C(=O)N[C@@H](Cc2c[nH]cn2)C(=O)N[C@@H](CCCNC(=N)N)C(=O)N[C@@H](CCCNC(=N)N)C(=O)N[C@@H](C)C(=O)N[C@@H](CC(N)=O)C(N)=O)NC(=O)[C@H](C(C)C)NC(=O)[C@H](CCCNC(=N)N)NC(=O)[C@H](C(C)C)NC(=O)CNC(=O)[C@H](CC(N)=O)NC(=O)[C@H](CCCNC(=N)N)NC(=O)[C@H](Cc2ccc(O)cc2)NC(=O)[C@H](C(C)C)NC1=O)C(C)C)C(C)C", "test system": "ICR mouse", "conditions": "ip, 10 mg/kg", "how to read": "direction not given", "measurement": "group interaction score", "result": 0}
{"SMILES": "CCN1[C@@H](C(=O)NC23CCC(C(=O)O)(CC2)CC3)[C@H](c2cccc(Cl)c2F)[C@]2(C(=O)Nc3cc(Cl)ccc32)C12CCCCC2", "test system": "patients with advanced solid tumours", "conditions": "oral, 200 mg", "measurement": "Dizziness incidence", "result": "0%"}
{"SMILES": "C[C@H]1CN(c2n[nH]c3nc(N[C@H]4CC[C@H](NS(=O)(=O)CCC(F)(F)F)CC4)ncc23)CCO1", "tested on": "DARS1 (Homo sapiens, UniProt P14868)", "test": "Kinobeads competition, measured: DARS", "conditions": "0.16 µM, unit not given", "how to read": "relative to: vehicle", "measurement": "remaining binding", "result": 0.96}
{"SMILES": "COc1ccc(-c2c(-c3ccc(C#N)c(F)c3)nc(N3CCC(N)CC3)n(C)c2=O)cc1F", "test": "measured: Thrombocytopenia", "test system": "relapsed/refractory marginal zone lymphoma patients", "conditions": "oral, 60 mg, any grade, dose expansion", "measurement": "treatment-related adverse event incidence", "result": "67%"}
{"SMILES": "CC[C@H](C)[C@H](NC(=O)[C@H](Cc1ccccc1)NC(=O)[C@H](CCC(=O)O)NC(=O)[C@H](CCCNC(=N)N)NC(=O)[C@H](C)NC(=O)[C@H](C)NC(=O)[C@H](CCC(N)=O)NC(=O)[C@H](CCC(=O)O)NC(=O)[C@H](CCC(=O)O)NC(=O)[C@H](CC(C)C)NC(=O)[C@H](Cc1ccc(O)cc1)NC(=O)[C@H](CO)NC(=O)[C@H](CO)NC(=O)[C@@H](NC(=O)[C@H](CC(=O)O)NC(=O)[C@H](CO)NC(=O)[C@@H](NC(=O)[C@H](Cc1ccccc1)NC(=O)[C@@H](NC(=O)CNC(=O)[C@H](CCC(=O)O)NC(=O)[C@H](C)NC(=O)CCc1c[nH]cn1)[C@@H](C)O)[C@@H](C)O)C(C)C)C(=O)N[C@@H](C)C(=O)N[C@@H](Cc1c[nH]c2ccccc12)C(=O)N[C@@H](CC(C)C)C(=O)N[C@H](C(=O)N[C@@H](CCCNC(=N)N)C(=O)NCC(=O)N[C@@H](CCCNC(=N)N)C(=O)N[C@@H](CCCCNC(=O)COCCOCCNC(=O)COCCOCCNC(=O)CC[C@H](NC(=O)CCCCCCCCCCCCCCCCC(=O)O)C(=O)O)C(=O)NCC(=O)NCC(=O)N[C@@H](CO)C(=O)N[C@@H](CCCCNc1c(NCCCCCN(O)C(=O)CCC(=O)NCCCCCN(O)C(=O)CCC(=O)NCCCCCN(O)C(C)=O)c(=O)c1=O)C(=O)O)C(C)C [zirconium-89 labelled]", "test system": "rat, knee", "conditions": "intravenous, 3 nmol/kg, 24 h", "measurement": "tissue uptake", "result": "0.23 %ID/g"}
{"SMILES": "CC(C)c1nc(N(C)S(C)(=O)=O)nc(-c2ccc(F)cc2)c1/C=C/[C@@H](O)C[C@@H](O)CC(=O)O", "test system": "healthy human subjects", "conditions": "oral, dose not given, study CL-0537 safety set", "measurement": "incidence of decreased appetite", "result": "0%"}
{"SMILES": "COc1cc(Nc2ncc(F)c(Nc3ccc4c(n3)NC(=O)C(C)(C)O4)n2)cc(OC)c1OC", "tested on": "PTAFR (Homo sapiens, UniProt P25105)", "measurement": "IC50", "result": "> 10 µM"}
{"SMILES": "C[C@]1(CO)Cc2ncn(-c3ccc(C#N)c(Cl)c3)c2C(=O)O1", "test system": "healthy Japanese adults, plasma", "conditions": "3 mg once daily, after first dose, multiple dose", "measurement": "Cmax", "result": "213 nM"}
{"SMILES": "O=C(Nc1ccccc1)C1CCN(C(=O)Oc2cccnc2)CC1", "test": "adverse event reporting", "test system": "healthy women", "conditions": "oral, 20 mg, 7 days", "measurement": "subjects with Hypoaesthesia adverse event", "result": "7.1%"}
{"SMILES": "Cn1c(-c2ccc(C(N)=O)cc2F)nnc1C(C)(C)Oc1c(F)cc(Cl)cc1F", "test system": "human", "conditions": "oral, 6 mg, single ascending dose, incl. administration site", "measurement": "general disorder TEAE", "result": "33.3%"}
{"SMILES": "[O-][S+]1CCc2nc(N3CCC(c4ncc(Cl)cn4)CC3)nc(NC3(CO)CCC3)c21 (stereo not drawn)", "test": "measured: Nausea", "test system": "healthy male humans", "conditions": "6 mg twice daily", "measurement": "adverse event incidence", "result": "12.5%"}
{"SMILES": "Nc1nc2cc(-c3ccc4ncc(C(=O)N5CCOCC5)n4c3)ccc2o1", "test system": "advanced solid tumour patients", "conditions": "dose not given", "how to read": "relative to: patients", "measurement": "grade ≥3 hyperglycaemia", "result": "7%"}
{"SMILES": "CCc1ccc(CC/C=C/c2ccc3c(c2)C(=O)CC3)cc1", "test system": "Sprague-Dawley rat, male", "conditions": "oral, 30 mg/kg/day, 14 days", "measurement": "Neutrophil percentage", "result": "10.6%"}
{"SMILES": "Clc1cc2c(cc1Cl)Oc1c(ccc(Cl)c1Cl)O2", "test system": "cow whole milk", "conditions": "20 nM", "how to read": "relative to: milk fat over skim milk", "measurement": "milk fat partition ratio", "result": 237}
{"SMILES": "CC[C@H](C)[C@@H]1NC(=O)[C@@H]2CCCN2C(=O)[C@H](CC(C)C)NC(=O)[C@H](CC(C)C)NC(=O)CNC(=O)[C@@H](NC(=O)[C@@H](NC(=O)[C@H](CC(=O)O)NC(=O)CNC(=O)[C@@H](NC(=O)[C@H](C)NC(=O)CNC(=O)[C@H](CCCCN)NC(=O)[C@H](CC(C)C)NC(=O)[C@H](CC(C)C)NC(=O)[C@H](CCCCN)NC(=O)CNC(=O)[C@@H](NC(=O)[C@@H](N)CC(C)C)C(C)C)C(C)C)C(C)C)CSSC[C@@H](C(=O)O)NC1=O", "test": "RNA-seq, measured: Il12rb1 mRNA", "test system": "mouse traumatic brain injury, frontal cortex and hippocampus", "conditions": "dose not given", "how to read": "relative to: TBI plus compound vs TBI", "measurement": "log2 fold change", "result": -2.05}
{"SMILES": "N[C@@H]1c2ccccc2OC12CCN(c1cnc3c(N4CCCc5ncccc54)n[nH]c3n1)CC2", "test system": "advanced metastatic solid tumour patients", "conditions": "oral, 40 mg once daily", "measurement": "TEAE leading to withdrawal", "result": "0%"}
{"SMILES": "O=C(O)C[C@H](NC(=O)[C@H](CC(=O)O)NC(=O)[C@H](CC(=O)O)NC(=O)[C@H](CC(=O)O)NC(=O)[C@H](CC(=O)O)NC(=O)[C@H](CC(=O)O)NC(=O)[C@H](CC(=O)O)NC(=O)[C@H](CC(=O)O)NC(=O)[C@H](CC(=O)O)NC(=O)[C@H](CC(=O)O)NC(=O)[C@H](CC(=O)O)NC(=O)[C@H](CCCCNC(=O)c1ccc(C(=O)NCCOCCOB2BBBBBB3BBBB3B2)cc1)NC(=O)CN1CCN(CC(=O)O)CCN(CC(=O)O)CCN(CC(=O)O)CC1)C(=O)O [gallium-67 labelled]", "test system": "ddY male mice, heart", "conditions": "intravenous, 37 kBq, 3 h", "measurement": "tissue uptake", "result": "0.05 %ID/g"}
{"note": "Repeated from above:"}
{"SMILES": "C[C@@H](O)[C@@H](CO)NC(=O)[C@@H](CCCNC(=N)N)NC(=O)[C@@H]1CCCN1C(=O)[C@@H]1CSSC[C@H](NC(=O)[C@H](Cc2ccccc2)NC(=O)CN2CCN(CC(=O)O)CCN(CC(=O)O)CCN(CC(=O)O)CC2)C(=O)N[C@@H](Cc2ccc(O)cc2)C(=O)N[C@@H](Cc2ccccc2)C(=O)N[C@@H](CCC(N)=O)C(=O)N[C@@H](CC(N)=O)C(=O)N1 [gallium-68 labelled]", "test system": "healthy Wistar rat, adrenals", "conditions": "intravenous, 8 MBq, 60 min, individual animals", "measurement": "tissue uptake", "result": "0.11 %ID/g"}
{"SMILES": "C[C@H]1C[C@@H](N2C(=N)N[C@](C)(c3cccc(NC(=O)c4cccc(C#N)c4)c3Cl)CC2=O)CCO1", "test system": "rat", "conditions": "1000 mg/kg, every other day", "measurement": "monocytes count change", "result": "46%"}
{"SMILES": "CO[C@H]1C[C@@H]2CC[C@@H](C)[C@@](O)(O2)C(=O)C(=O)N2CCCC[C@H]2C(=O)O[C@H]([C@H](C)C[C@@H]2CC[C@@H](OC(=O)NCCOCCOCCOCCOCCOCCOCCOCCOCCC(=O)N3CCc4cc(Cn5nc(-c6ccc7oc(N)nc7c6)c6c(N)ncnc65)ccc4C3)[C@H](OC)C2)C[C@@H](O)[C@H](C)/C=C(\\C)[C@@H](O)[C@@H](OC)C(=O)[C@H](C)C[C@H](C)/C=C/C=C/C=C/1C", "test system": "patients with advanced solid tumours", "conditions": "intravenous, 16 mg weekly, grade 3 or higher", "measurement": "AE leading to dose reduction", "result": "50%"}
{"SMILES": "CN1CC[C@@H](c2c(O)cc(O)c3c(=O)cc(-c4ccc(C(F)(F)F)cc4Cl)oc23)[C@@H]1CO", "test": "measured: Hypotension", "test system": "AML", "conditions": "oral, 200 mg, intermittent dosing", "measurement": "patients with adverse event", "result": "10%"}
